Assay results pooled from the literature.
Every numbered part comes from another study and shows a few of its results, in no order.
Chain of UniProt P10721 (whole entry, unmodified, looked up): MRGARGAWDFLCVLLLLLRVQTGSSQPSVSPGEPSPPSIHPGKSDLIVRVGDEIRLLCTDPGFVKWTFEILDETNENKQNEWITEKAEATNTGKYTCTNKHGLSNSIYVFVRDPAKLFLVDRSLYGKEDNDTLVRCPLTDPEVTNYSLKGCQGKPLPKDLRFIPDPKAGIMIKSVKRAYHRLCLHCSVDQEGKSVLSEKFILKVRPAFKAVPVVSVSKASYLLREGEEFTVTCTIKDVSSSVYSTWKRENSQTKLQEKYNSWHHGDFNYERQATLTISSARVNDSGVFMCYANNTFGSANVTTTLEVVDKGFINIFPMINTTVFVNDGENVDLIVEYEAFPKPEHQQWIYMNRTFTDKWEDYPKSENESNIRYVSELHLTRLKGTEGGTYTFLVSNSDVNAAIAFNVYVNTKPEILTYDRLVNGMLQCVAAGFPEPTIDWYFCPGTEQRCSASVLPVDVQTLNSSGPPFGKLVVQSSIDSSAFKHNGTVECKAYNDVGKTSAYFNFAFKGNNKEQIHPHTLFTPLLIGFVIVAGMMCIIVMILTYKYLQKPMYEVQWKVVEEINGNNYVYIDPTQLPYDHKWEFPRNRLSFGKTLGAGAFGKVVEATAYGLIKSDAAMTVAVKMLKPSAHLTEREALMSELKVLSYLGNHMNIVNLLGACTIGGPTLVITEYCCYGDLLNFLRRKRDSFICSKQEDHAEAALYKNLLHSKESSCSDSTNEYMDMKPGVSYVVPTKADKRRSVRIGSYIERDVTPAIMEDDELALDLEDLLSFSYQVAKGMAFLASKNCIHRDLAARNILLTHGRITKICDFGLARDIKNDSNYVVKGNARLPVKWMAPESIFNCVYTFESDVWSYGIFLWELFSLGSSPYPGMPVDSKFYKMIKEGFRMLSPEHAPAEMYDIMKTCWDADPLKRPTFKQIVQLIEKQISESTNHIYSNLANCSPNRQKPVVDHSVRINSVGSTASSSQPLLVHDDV
Chain of UniProt P23458 (whole entry, looked up): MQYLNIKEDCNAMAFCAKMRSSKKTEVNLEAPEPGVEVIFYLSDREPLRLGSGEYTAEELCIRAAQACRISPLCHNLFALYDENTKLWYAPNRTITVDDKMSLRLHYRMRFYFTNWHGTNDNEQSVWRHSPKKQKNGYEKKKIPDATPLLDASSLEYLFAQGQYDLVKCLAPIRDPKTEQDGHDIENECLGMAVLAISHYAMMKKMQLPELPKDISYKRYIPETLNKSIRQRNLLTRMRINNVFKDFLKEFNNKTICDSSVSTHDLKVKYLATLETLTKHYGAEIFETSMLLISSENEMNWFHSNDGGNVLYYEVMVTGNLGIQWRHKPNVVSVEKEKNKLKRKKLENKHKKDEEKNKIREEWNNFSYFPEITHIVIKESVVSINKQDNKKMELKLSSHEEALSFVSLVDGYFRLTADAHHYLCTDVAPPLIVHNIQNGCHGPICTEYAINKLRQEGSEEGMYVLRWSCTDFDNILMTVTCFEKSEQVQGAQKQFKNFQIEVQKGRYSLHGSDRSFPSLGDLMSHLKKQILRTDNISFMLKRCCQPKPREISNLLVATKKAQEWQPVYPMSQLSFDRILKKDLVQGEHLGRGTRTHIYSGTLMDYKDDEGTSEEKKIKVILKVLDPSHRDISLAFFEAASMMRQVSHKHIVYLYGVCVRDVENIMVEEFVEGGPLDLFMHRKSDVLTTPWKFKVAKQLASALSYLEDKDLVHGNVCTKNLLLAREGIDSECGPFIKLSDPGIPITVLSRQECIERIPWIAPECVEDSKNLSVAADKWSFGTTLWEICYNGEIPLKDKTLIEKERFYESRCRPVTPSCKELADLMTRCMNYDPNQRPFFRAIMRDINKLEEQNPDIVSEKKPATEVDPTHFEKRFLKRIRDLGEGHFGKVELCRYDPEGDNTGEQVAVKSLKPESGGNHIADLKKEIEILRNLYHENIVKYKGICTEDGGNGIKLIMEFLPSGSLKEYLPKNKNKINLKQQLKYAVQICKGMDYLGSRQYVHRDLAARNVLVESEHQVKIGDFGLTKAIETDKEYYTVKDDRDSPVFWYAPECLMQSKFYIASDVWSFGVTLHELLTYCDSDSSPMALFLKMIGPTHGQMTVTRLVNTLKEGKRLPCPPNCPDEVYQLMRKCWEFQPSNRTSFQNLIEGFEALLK
Chain of UniProt P36894 (whole entry, looked up): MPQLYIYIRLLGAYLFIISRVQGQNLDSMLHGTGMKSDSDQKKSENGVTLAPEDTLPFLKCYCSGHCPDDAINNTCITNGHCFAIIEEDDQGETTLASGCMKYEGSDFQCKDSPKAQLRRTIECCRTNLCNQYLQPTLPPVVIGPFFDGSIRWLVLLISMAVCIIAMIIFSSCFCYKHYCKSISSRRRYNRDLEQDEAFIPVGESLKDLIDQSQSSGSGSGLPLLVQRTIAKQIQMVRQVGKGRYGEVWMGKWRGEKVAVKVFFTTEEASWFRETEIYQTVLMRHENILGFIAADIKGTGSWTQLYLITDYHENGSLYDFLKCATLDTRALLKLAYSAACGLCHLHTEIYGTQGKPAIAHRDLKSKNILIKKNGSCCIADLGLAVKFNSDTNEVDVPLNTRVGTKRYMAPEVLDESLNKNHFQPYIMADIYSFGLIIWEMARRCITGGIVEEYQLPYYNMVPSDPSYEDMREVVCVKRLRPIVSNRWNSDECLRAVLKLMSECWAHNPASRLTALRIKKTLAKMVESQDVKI
Chain of UniProt Q9UBE8 (whole entry, looked up): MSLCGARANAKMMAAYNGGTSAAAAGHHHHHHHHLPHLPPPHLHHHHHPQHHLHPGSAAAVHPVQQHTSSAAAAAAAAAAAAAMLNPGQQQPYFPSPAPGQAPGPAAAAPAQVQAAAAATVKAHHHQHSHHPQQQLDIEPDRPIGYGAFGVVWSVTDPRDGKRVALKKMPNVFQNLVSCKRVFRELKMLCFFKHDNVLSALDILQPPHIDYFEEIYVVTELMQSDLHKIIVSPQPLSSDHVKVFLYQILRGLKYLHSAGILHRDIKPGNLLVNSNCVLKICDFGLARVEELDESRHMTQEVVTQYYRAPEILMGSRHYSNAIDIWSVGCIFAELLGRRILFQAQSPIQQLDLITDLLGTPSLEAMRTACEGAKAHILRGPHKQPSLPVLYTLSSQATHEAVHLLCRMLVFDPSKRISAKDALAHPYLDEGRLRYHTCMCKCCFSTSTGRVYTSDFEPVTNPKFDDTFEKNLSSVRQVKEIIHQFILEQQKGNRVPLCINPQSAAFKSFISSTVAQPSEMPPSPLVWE
Chain of UniProt Q15569 (whole entry, looked up): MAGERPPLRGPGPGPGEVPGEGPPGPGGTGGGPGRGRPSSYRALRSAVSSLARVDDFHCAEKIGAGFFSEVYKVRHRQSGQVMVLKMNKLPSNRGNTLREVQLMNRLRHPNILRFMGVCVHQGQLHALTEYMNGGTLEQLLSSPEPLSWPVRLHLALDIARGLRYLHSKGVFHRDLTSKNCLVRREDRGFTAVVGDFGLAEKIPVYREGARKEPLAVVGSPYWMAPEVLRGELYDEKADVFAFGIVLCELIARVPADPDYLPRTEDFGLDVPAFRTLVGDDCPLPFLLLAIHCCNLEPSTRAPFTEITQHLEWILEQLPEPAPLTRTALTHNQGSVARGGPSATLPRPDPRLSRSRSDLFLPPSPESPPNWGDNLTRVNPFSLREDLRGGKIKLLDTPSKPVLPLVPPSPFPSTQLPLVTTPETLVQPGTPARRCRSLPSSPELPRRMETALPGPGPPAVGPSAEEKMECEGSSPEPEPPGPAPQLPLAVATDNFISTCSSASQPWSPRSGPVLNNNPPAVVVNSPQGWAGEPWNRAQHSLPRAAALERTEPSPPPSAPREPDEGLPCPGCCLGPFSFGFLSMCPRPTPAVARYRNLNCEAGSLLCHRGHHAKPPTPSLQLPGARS
Chain of UniProt P15056 (whole entry, looked up): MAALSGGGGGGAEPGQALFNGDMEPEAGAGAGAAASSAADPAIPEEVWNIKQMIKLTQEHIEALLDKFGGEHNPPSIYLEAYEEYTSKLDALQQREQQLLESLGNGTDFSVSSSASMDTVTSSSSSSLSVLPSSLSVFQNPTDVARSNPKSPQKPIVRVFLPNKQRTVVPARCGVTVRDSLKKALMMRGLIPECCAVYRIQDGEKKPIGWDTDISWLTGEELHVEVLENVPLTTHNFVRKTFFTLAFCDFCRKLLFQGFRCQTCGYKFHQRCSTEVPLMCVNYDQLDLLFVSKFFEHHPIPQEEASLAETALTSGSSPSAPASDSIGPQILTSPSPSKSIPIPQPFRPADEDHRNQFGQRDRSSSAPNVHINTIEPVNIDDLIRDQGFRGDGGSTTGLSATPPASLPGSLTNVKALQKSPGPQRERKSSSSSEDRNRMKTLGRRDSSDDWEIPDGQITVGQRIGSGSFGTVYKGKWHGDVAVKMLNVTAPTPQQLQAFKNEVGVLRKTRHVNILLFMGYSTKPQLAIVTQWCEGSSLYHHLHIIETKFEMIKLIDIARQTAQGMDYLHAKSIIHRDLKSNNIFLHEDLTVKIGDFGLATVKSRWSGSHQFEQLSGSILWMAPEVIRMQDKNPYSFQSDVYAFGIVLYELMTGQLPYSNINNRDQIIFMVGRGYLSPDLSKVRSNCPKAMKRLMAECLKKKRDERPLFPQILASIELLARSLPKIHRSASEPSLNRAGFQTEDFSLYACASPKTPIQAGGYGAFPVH

Block 1
Target: Serine/threonine-protein kinase 24 (STK24, Homo sapiens, UniProt Q9Y6E0)
Chain of UniProt Q9Y6E0 (whole entry, looked up): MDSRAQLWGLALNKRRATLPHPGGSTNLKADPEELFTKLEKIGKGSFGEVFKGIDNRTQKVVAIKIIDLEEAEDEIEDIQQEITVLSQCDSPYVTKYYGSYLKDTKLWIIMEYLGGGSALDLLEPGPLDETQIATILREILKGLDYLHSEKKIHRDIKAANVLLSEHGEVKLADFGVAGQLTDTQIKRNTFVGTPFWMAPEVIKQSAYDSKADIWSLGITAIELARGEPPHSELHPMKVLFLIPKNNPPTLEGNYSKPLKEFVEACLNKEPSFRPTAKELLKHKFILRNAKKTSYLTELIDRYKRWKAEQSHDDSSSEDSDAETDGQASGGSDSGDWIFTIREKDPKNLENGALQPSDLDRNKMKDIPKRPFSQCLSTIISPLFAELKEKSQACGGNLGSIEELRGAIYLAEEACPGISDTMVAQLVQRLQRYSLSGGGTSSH
Effect on: enzyme activity
Mode: inhibitor
Tested at: 0.5 µM
Relative to: control
Structure (SMILES) | remaining activity
O=C1NC(=O)c2c1c1c3ccccc3[nH]c1c1[nH]c3cc(Br)ccc3c21 | 80.1%
c1ccc2c(-c3ccncc3)c[nH]c2c1 | 93.5%
O=C1Nc2ccc(Br)cc2/C1=C/c1cc2c([nH]1)CCCC2 | 94.2%
COc1cccc(-c2cc(=O)c3ccccc3o2)c1N | 108%
Cc1ccc(S(=O)(=O)/C=C/C#N)cc1 | 89.3%
COc1ccc2c(c1)c(C1=C(c3c[nH]c4ccccc34)C(=O)NC1=O)cn2CCCN(C)C | 36.6%
N#Cc1cnc2cnc(NCc3cccnc3)cc2c1Nc1ccc(F)c(Cl)c1 | 95.6%
Cc1cc(Nc2cc(N3CCN(C)CC3)nc(Sc3ccc(NC(=O)C4CC4)cc3)n2)[nH]n1 | 96.7%
O=Nc1c(-c2c(O)[nH]c3cc(Br)ccc23)[nH]c2ccccc12 | 90.9%
O=c1cc(N2CCOCC2)oc2c(-c3ccccc3)cccc12 | 97.1%

Block 2
Species: human
Medium: microsomes or S9
Tested at: 2 µM
Time: 0.5 h
SMILES | remaining compound [%]
C/C(=C\COc1ccc2ccc(=O)oc2c1)CC/C=C(\C)CCC(O)C(C)(C)O (centres unmarked) | > 99
O=C(OCC(=O)c1c(-c2ccccc2)[nH]c2ccccc12)c1ccccc1NCCO | 56.6
O=C(CN1CCCCCC1)NCC12CCCC=C1NC(=O)CC2 (centres unmarked) | 81
Cn1nc(C2CC2)c2c(C(=O)Nc3ccc(Cn4cc(Cl)cn4)cc3)cc(C3CC3)nc21 | 89.2
CC1C(c2ccccc2)CCC(C(=O)O)C1C(=O)O (centres unmarked) | > 99
Cc1ccc2cc(CNc3ccc4c(c3)C(=O)NC4)ccc2n1 | 62.6
O=C(Nc1ccc2nncn2c1)c1cccc2cc[nH]c12 | 67.3
Cc1cc2nc(NC(=O)N3CCN(c4cc(C(C)(C)C)cc(C(C)(C)C)c4)CC3)sc2cc1C | 35.8
O=C(NCc1ccc(F)cc1)c1nc2c(cnn2-c2ccc(F)cc2)c(=O)[nH]1 | 91.4

Block 3
Compound: CO[C@@H](C)c1c(Nc2ccc([C@H](N(C)C(=O)C3CCS(=O)(=O)CC3)C(F)(F)F)cc2)cnc2cc(Cl)nn12
Technique: competition with immobilised ligand
Tested at: 1 µM
target | assay | remaining binding [%]
Dual specificity mitogen-activated protein kinase kinase 1 (MAP2K1, Homo sapiens, UniProt Q02750) | cell-free assay | 100
cGMP-dependent protein kinase 1 (PRKG1, Homo sapiens, UniProt Q13976) | cell-free assay | 85
Dual specificity testis-specific protein kinase 1 (TESK1, Homo sapiens, UniProt Q15569) | cell-free assay | 85
Myosin light chain kinase family member 4 (MYLK4, Homo sapiens, UniProt Q86YV6) | cell-free assay | 86
Casein kinase I isoform gamma-2 (CSNK1G2, Homo sapiens, UniProt P78368) | cell-free assay | 93
Serine/threonine-protein kinase B-raf (BRAF, Homo sapiens, UniProt P15056) | cell-free assay | 85
Serine/threonine-protein kinase NLK (NLK, Homo sapiens, UniProt Q9UBE8) | cell-free assay | 83
Tyrosine-protein kinase JAK1, JH2 (JAK1, Homo sapiens, UniProt P23458) | cell-free assay | 100
Dual specificity mitogen-activated protein kinase kinase 2 (MAP2K2, Homo sapiens, UniProt P36507) | cell-free assay | 96
Bone morphogenetic protein receptor type-1A (BMPR1A, Homo sapiens, UniProt P36894) | binding | 71
Serine/threonine-protein kinase D2 (PRKD2, Homo sapiens, UniProt Q9BZL6) | cell-free assay | 83
Mast/stem cell growth factor receptor Kit (KIT, Homo sapiens, UniProt P10721, D816V) | cell-free assay | 96

Single results of other studies
SMILES | assay | test system | setting | endpoint | result
CC(C)n1cnc(-c2ccc(F)cc2)c1-c1ncc(C(=O)Nc2ccc(N3CCN(C)CC3)cc2)[nH]1 | phase 2a clinical trial | patients with idiopathic pulmonary fibrosis | 30 mg once daily | patients with ALP increased TEAE | 0%

A few entries again (block 3):
target | assay | remaining binding [%]
Serine/threonine-protein kinase B-raf (BRAF, Homo sapiens, UniProt P15056) | cell-free assay | 85
Serine/threonine-protein kinase NLK (NLK, Homo sapiens, UniProt Q9UBE8) | cell-free assay | 83
Tyrosine-protein kinase JAK1, JH2 (JAK1, Homo sapiens, UniProt P23458) | cell-free assay | 100
Dual specificity mitogen-activated protein kinase kinase 2 (MAP2K2, Homo sapiens, UniProt P36507) | cell-free assay | 96
Bone morphogenetic protein receptor type-1A (BMPR1A, Homo sapiens, UniProt P36894) | binding | 71
